{"data": "Earlier results, collected from citations in different studies", "chain of UniProt Q9UBE8 (whole entry, looked up)": "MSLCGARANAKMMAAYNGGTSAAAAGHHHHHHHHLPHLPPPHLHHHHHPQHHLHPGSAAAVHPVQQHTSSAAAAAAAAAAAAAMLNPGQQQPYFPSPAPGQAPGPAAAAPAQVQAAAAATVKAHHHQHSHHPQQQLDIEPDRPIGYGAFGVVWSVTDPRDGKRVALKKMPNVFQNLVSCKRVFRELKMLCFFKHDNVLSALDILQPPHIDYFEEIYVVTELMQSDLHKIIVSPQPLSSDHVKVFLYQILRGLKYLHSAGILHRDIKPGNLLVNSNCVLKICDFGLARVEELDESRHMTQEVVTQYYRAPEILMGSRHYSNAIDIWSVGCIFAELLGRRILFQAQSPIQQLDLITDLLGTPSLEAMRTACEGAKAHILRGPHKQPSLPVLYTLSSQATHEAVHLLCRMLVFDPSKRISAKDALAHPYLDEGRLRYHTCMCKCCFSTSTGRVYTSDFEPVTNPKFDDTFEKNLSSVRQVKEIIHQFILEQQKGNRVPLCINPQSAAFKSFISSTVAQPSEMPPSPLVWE"}
{"Compound": "O=C(/C=C/c1ccc(O)c(O)c1)O[C@@H]1C[C@@](O)(C(=O)O)C[C@@H](O)[C@@H]1O", "tested on": "hepatitis B virus", "assay": "rcDNA level", "test system": "HepG2.2.15", "endpoint": "IC50", "result": "7.3 µM"}
{"Compound": "O=C(Nc1cc(F)c(F)c(F)c1)c1ccc(F)c(S(=O)(=O)N2CCC(O)CC2)c1", "tested on": "hepatitis B virus", "assay": "viral replication", "test system": "HepG2.2.15 cells", "endpoint": "EC50", "result": "0.26 µM"}
{"Compound": "Nc1cc(C(F)(F)F)c(-c2nc(N3CCOCC3)nc(N3CCOCC3)n2)cn1", "tested on": "NLK (Homo sapiens, UniProt Q9UBE8)", "assay": "enzyme activity", "setting": "10 µM", "how to read": "baseline: untreated", "endpoint": "remaining activity", "result": "99%"}
{"Compound": "O=c1c(O)c(-c2ccc(O)c(O)c2)oc2cc(O)cc(O)c12", "tested on": "herpes simplex virus 2", "assay": "viral replication", "endpoint": "EC50", "result": "35 µM"}
{"Compound": "Cc1cnc(N2CC3(CCOCC3)C2)c(C(=O)Nc2ccc(C(=O)N3CCc4cc(C(=O)Nc5c(C)cccc5F)sc4-c4ccccc43)cc2)c1", "tested on": "respiratory syncytial virus", "assay": "cytopathic effect", "test system": "5 subtype A clinical isolates", "endpoint": "median IC90", "result": "0.00177 µg/mL"}
{"Compound": "C[C@@H]1CCO[C@H]2Cn3cc(C(=O)NCc4ccc(F)cc4F)c(=O)c(O)c3C(=O)N12", "tested on": "HIV", "setting": "protein-binding adjusted", "endpoint": "IC90", "result": "0.064 µg/mL"}
{"Compound": "C[C@H](Cn1cnc2c(N)ncnc21)OCP(=O)(O)O", "tested on": "hepatitis B virus", "assay": "item: HBV DNA", "test system": "human HBeAg-negative patients", "setting": "dose not given, week 8, after discontinuation", "endpoint": "virologic relapse", "result": "72%"}
{"Compound": "c1ccc2c(c1)CCNC2c1c[nH]c2ccccc12 (centres unmarked)", "tested on": "Escherichia coli", "assay": "efflux pump inhibition", "test system": "AG100 AcrAB-TolC expressing", "setting": "50 µM", "how to read": "baseline: untreated cells", "endpoint": "relative fluorescence index", "result": 0.2}
{"Compound": "CC1(C)S[C@@H]2[C@H](NC(=O)[C@H](N)c3ccccc3)C(=O)N2[C@H]1C(=O)O", "tested on": "Klebsiella pneumoniae", "test system": "clinical isolate RKI-No_68/16", "endpoint": "MIC", "result": "> 16 µg/mL"}
{"Compound": "COc1cc2c3c(c1OC)C1(C=CC(=O)C=C1)C[C@H]3N(C)CC2", "tested on": "hepatitis B virus", "assay": "HBsAg secretion", "test system": "HepG2.2.15", "endpoint": "IC50", "result": "42 µM"}
{"Compound": "C[C@H]1COCCN1c1nc(-c2cnc(N)cc2C(F)F)nc(N2CCOCC2)n1", "tested on": "AU565", "endpoint": "GI50", "result": "0.212 µM"}
{"Compound": "[N-]=[N+]=N[C@]1(CO)O[C@@H](n2ccc(N)nc2=O)[C@@H](F)[C@@H]1O", "tested on": "hepatitis C virus", "assay": "viral replication", "test system": "2209-23 HCV replicon cells", "endpoint": "EC50", "result": "0.024 µM"}
{"Compound": "O=C(/C=C/c1ccc(O)c(O)c1)O[C@@H]1C[C@](O)(C(=O)O)C[C@@H](OC(=O)/C=C/c2ccc(O)c(O)c2)[C@H]1O", "tested on": "hepatitis B virus", "assay": "viral antigen level, item: HBsAg", "endpoint": "IC50", "result": "90 µM"}
{"Compound": "O=C(O)[C@H]1O[C@@H](Oc2cc3oc(-c4ccccc4)cc(=O)c3c(O)c2O)[C@H](O)[C@@H](O)[C@@H]1O", "tested on": "Mycoplasmoides gallisepticum", "setting": "concentration not given", "endpoint": "AUC24h/MIC for bactericidal effect", "result": "1.49 h"}
{"Compound": "O=C(C1CCCCC1)N1CC(=O)N2CCc3ccccc3[C@@H]2C1", "tested on": "Schistosoma haematobium", "test system": "adult worms", "setting": "4 h", "endpoint": "EC50", "result": "0.007 µg/mL"}
{"Compound": "C=C1C(=O)O[C@@H]2/C=C(\\C)CC/C=C(\\C)CC[C@@H]12", "tested on": "hepatitis B virus", "assay": "HBsAg secretion", "test system": "Hep3B", "endpoint": "IC50", "result": "1 µM"}
{"Compound": "CNC(C)C1CCC(N)C(OC2C(N)CC(N)C(OC3OCC(C)(O)C(NC)C3O)C2O)O1 (centres unmarked)", "tested on": "Enterobacter cloacae", "test system": "clinical isolate RKI-No_460/16", "endpoint": "MIC", "result": "> 8 µg/mL"}
{"Compound": "COc1cccc(C(=O)NN(C(=O)c2cc(C)cc(C)c2)C(C)(C)C)c1C", "tested on": "Anopheles gambiae", "test system": "G3, females", "setting": "topical, concentration not given", "endpoint": "fecundity", "result": "decreased"}
{"Compound": "CCC1=C(CC)/C(=C/NC23CC4CC(CC(C4)C2)C3)N=C1c1ccc[nH]1", "tested on": "Plasmodium yoelii", "test system": "Kenya MRA-428", "setting": "80 mg/kg, single dose, day 5", "endpoint": "parasitemia reduction", "result": "100%"}
{"Compound": "CCCCc1ccc(-c2nc(C)c(/C(C)=N/NC(=N)N)s2)cc1", "tested on": "Enterococcus faecalis", "endpoint": "IC50", "result": "~2 µg/mL"}
{"note": "A few entries again:"}
{"Compound": "CCC1=C(CC)/C(=C/NC23CC4CC(CC(C4)C2)C3)N=C1c1ccc[nH]1", "tested on": "Plasmodium yoelii", "test system": "Kenya MRA-428", "setting": "80 mg/kg, single dose, day 5", "endpoint": "parasitemia reduction", "result": "100%"}
{"Compound": "[N-]=[N+]=N[C@]1(CO)O[C@@H](n2ccc(N)nc2=O)[C@@H](F)[C@@H]1O", "tested on": "hepatitis C virus", "assay": "viral replication", "test system": "2209-23 HCV replicon cells", "endpoint": "EC50", "result": "0.024 µM"}
